Assay results pooled from the literature.
A part holds a random share of what one study measured.

Study 1
Target: Histone acetyltransferase KAT6A, winged helix 1, GST fusion (KAT6A, Homo sapiens, UniProt Q92794, residues 1-85)
Method: protein binding microarray
Form: double-stranded DNA, one strand shown
Matrix: in vitro
Tested at: not given
Setting: 8-mer, flanks averaged, mean of 2 arrays, mostly near background
Relative to: not given
Reading: higher = stronger binding
Target sequence (chain): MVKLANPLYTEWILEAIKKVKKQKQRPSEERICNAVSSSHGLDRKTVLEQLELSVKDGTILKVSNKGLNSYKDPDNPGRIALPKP
| Oligonucleotide | E-score |
| --- | --- |
| AGGACGGG | 0.19 |
| CAACATAG | -0.163 |
| ACCCTTAG | -0.152 |
| AACGCGAA | 0.0442 |
| ATATTAAC | -0.0329 |
| GCGATCAA | 0.0015 |
| CCTCATCG | -0.0786 |
| ACGTAAAT | -0.0525 |
| CTATTAAC | -0.0416 |
| ACGAAACG | 0.0722 |
| AGCGGAAG | 0.207 |
| TCAAGACA | -0.108 |
| GGATCAAA | -0.175 |
| GAAGCTAA | -0.117 |
| ACCGGCGC | 0.426 |
| ATCGTATG | -0.192 |
| CTCCTATA | -0.218 |
| ACTTGATA | -0.077 |
| AACTGCTT | -0.0737 |

Study 2
Target: Prothrombin, mature alpha-thrombin (F2, Homo sapiens, UniProt P00734)
Method: aptamer microarray, sandwich
Form: DNA with 2'F-ANA
Matrix: in vitro
Tested at: 200 nM
Setting: whole 15-mer aptamer, many near background
Together with: Cy3 exosite-II aptamer, 400 nM
Reading: higher = stronger binding
Oligonucleotide: GGTTGGTGTGGTTGG
| Modification | mean fluorescence intensity [a.u.] |
| --- | --- |
| 2'F-ANA at 1 3 4 5 7 8 10 13 14 | 44.9 |
| 2'F-ANA at 4 8 9 10 11 13 | 63.9 |
| 2'F-ANA at 1 2 3 6 7 8 11 12 13 14 15 | 86.2 |
| 2'F-ANA at 1 2 7 8 10 12 13 14 15 | 50.8 |
| 2'F-ANA at 4 6 8 9 10 12 13 | 79.6 |
| 2'F-ANA at 1 3 4 5 6 9 10 11 14 | 47.4 |
| 2'F-ANA at 2 3 4 6 8 9 10 12 13 14 15 | 152 |
| 2'F-ANA at 3 6 7 8 10 11 12 13 | 435 |
| 2'F-ANA at 1 2 4 6 7 9 12 13 14 15 | 56.8 |
| 2'F-ANA at 3 4 5 9 11 13 14 | 51.7 |
| 2'F-ANA at 3 4 5 6 9 11 15 | 75.6 |
| 2'F-ANA at 4 5 7 9 10 12 13 14 | 41.9 |
| 2'F-ANA at 1 2 3 4 7 8 9 11 13 14 | 103 |
| 2'F-ANA at 1 2 4 6 10 13 14 | 58.8 |
| 2'F-ANA at 1 3 8 10 11 14 15 | 65 |
| 2'F-ANA at 1 3 5 8 10 12 13 14 | 48.1 |
| 2'F-ANA at 1 2 3 4 11 12 14 | 70.5 |
| 2'F-ANA at 3 4 6 11 12 | 767 |
| 2'F-ANA at 3 4 5 6 8 9 11 12 13 15 | 102 |
| 2'F-ANA at 1 2 3 4 5 6 7 8 10 11 15 | 178 |
| 2'F-ANA at 1 3 5 8 9 10 12 13 14 | 61 |
| 2'F-ANA at 2 3 5 6 10 11 13 15 | 53.1 |

Study 3
Target: RING finger protein unkempt homolog, zinc fingers 1-6, GST-SBP tag (UNK, Homo sapiens, UniProt Q9C0B0, residues 30-357)
Chain of UniProt Q9C0B0 (30-357, looked up): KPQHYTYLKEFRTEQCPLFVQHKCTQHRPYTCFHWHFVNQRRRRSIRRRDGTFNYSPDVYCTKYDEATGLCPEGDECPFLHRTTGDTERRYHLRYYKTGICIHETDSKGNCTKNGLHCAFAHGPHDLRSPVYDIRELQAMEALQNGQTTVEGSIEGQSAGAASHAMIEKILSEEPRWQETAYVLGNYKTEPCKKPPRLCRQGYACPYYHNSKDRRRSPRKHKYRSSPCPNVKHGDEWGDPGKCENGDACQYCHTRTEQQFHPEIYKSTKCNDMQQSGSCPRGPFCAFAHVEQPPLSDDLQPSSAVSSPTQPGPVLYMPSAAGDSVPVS
Method: RNA Bind-n-Seq
Form: RNA
Matrix: in vitro
Tested at: not given
Setting: RNA with constant flanks, human-mouse chimeric sites, ends assumed
Relative to: input RNA pool
Reading: higher = stronger binding
Constant ends, left off below: GGGAGUUCUACAGUCCGACGAUC … CAACAGAGGAUUGAGCAUCA
| Oligonucleotide | bound/input enrichment |
| --- | --- |
| GCUCUUGGGAAUGUAAUAAGUGCCUUGGGGGACAAGAGCAAGAGAGCCACCCAUGUCCCUUACAGAGACUCUAAGCUAACAAGACUAUUGCAGGAUUCCCUUGGGGGUAACAGCCAAACC | 0.147 ratio |
| UUUGUUUUUAUGCUAAGCACACGUGCUGGUGGUCUGGGCAUCAAUCUUGCGACUGCUGAUGUAGUCAUUUUAUAUGACUCAGAUUGGAAUCCGCAAGUUGAUCUUCAGGCUAUGGACCGU | 0.116 ratio |
| GGAAGUACAAUGAUGGAAAUAGAUGGCGACAAAGGCAAGCAGGGCGGUCCCACCUACUACAUAGACACCAAUGCCCUCCGCGUGCCCAGGGAGAACAUGGAGGCCAUCUCACCACUCAAG | 0.263 ratio |
| AAUUUCCUGUCAUACUUUUUAGACAUUCACAUCAGACGCCUUACUACCCUGGCCACAUUCUAGGUUUGUGUUAUUUCUCAGCUAUGGGGGUAUGAUUAUGAGAACACUGCUUAACUAAUG | 1.25 ratio |
| UAAGUUAUUUUGUACAGUAAGUUAUUUUCUUAACAUUUUUAUAUUGCCAUGUUUAUUUUGUUUGGGUAAUUUGGUUCAUACAUGGCCUAGCUAAGGUAAUGAACAUCUUUUUCAGUAAUU | 2.34 ratio |
| GGGACUGAUUCAUCCCAAGGACAGGCCGCCCAGUCUGAUGCCUGGACUGAUGACAGUAUGGAAGGGCCUAGUCAAAAUUUUGAAGCUGAGUCAAUUCAGGAUGCCAUGAGUAUGGAAGAG | 0.207 ratio |
| CUGAGGAUACCACUGAAGAGACCUUAAAAGAAUCAUUUGAGGGCUCUGUUCGUGCAAAGGAUAGUUAUGAUCGGGAAAACUGGGUCCCCAAAGGGUUUGGUUUUGUAGACUUUAAUAGUG | 0.751 ratio |
| ACCAUUUUCGCGGUUCAAGGUUUUGUGGUAGUUCACUUACGGUAUUAAAUUAUUAUUCUGCUUAGCUUAUAAUAAGGAUAAUUGCAUUUAAAGAGGUUACUGAAUGUUGUUAUUGUUCUU | 2.72 ratio |

Study 4
Target: RNA binding protein fox-1 homolog 2, RRM domain, GST-SBP tag (RBFOX2, Homo sapiens, UniProt O43251-10, residues 100-194)
Method: RNA Bind-n-Seq
Form: RNA
Matrix: in vitro
Tested at: 365 nM
Setting: natural RNA segment, single round, ends assumed
Relative to: no-protein control
Reading: higher = stronger binding
Constant ends, left off below: GGGAGUUCUACAGUCCGACGAUC … UGGAAUUCUCGGGUGCCAA
Target sequence (chain): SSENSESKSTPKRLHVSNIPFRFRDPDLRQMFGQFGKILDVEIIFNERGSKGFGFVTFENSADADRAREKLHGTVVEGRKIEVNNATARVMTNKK
| Oligonucleotide | RBNS enrichment (R) |
| --- | --- |
| UUUAUUCAAAGUGUAAAAGCACAUACUGCAUUUUCUGCUGAAAGAUCAUUAUGUUUAACAGGCACUUAAUCUCAGUAAAGUCAGUUGCCAGUUAAGUUCCACCCAGUAGU | 0.408 |
| AAACCAUUGCAUAAAUGCUAUUGUAAAAAAAAUUAAACAAAUGUUAACAACUUUAACAAUUCACUAAGUAAAUGGUUAUGUAUUAUAAAUAUGACCAUCUGGGUUAAGAA | 0.481 |
| GGGAUAUGUAGGUCAAAUCAAAUUAAAGAUGAUUUUUUUAAUGUGAAUAAAGUUAUGUUCUGAUAGUUUGUACAGAAAAAAUAAAAUGGAUGCCCAUGUUUUAUUGCUAU | 8.38 |
| AGUGUAAACAGUAGACACCCAGAAAAUCGUGACUUCUGUGUUCUCUCCAUUUGAGUAUUUUGUAAUUUUUUUGAAAUAUUUGUGGACAUAAAUAAAACCAAGCUACACUA | 0.492 |
| CAAUCAUGGGCUCCCACCAAUAAACACUUUACGGGUGGGUGUGUGUGUGUGUGCGCGCGCGCGCAUGUGCGCAUACUGUGUAAUGUUGGAAAAGGGAUGAAAUUGAAGAA | 0.31 |
| UUUGCAAAUGUGUAUGAUGCCAGUUGUUUGGACUCUUGGAAAACACCACUGGAGGGCUUUGCUCCAGAAUGCAGACCGCUCUGCCAAGGCCUCCAUGUCUGCUUGCAUCU | 9.2 |
| GCAUGAUGAUAAUAAAAUCAAAAGCUGGAAUACAAUUAAAGCAUCAGAUUUACACUGGCACUGUGCCCUCUACCACUAUAUGCCAAAAACUGCUUCUGUAGUACCAUUUU | 2.89 |
| AUGGGAGACCCUUGACACCUGCUGAGAAAACAUGCCUCUGCCAAAGGAUGUGAUAUAUAAGUGUACAUAUGUGCUGUACACCUGGGACCUUCACCACUGUAGAUCCCAUG | 0.76 |

For quick reference, copied from above (study 1):
| Oligonucleotide | E-score |
| --- | --- |
| CCTCATCG | -0.0786 |
| ACGTAAAT | -0.0525 |
| CTATTAAC | -0.0416 |
| ACGAAACG | 0.0722 |
| AGCGGAAG | 0.207 |
| TCAAGACA | -0.108 |
| GGATCAAA | -0.175 |
